Measured values pooled from the literature.
± marks the error that the study gave.

Compound | test | test system | setting | scale | endpoint | value
C=CC(=O)Nc1cc(Nc2nccc(-c3cn(C)c4ccccc34)n2)c(OC)cc1N(C)CCN(C)C | storage stability | human plasma | 30 d, on ice, MQC level |  | recovery | 50.3%
Cc1cc(Nc2cc3ncccc3c(N[C@@H]3C[C@H]4CC[C@@H](C3)N4CCC#N)n2)n[nH]1 |  | human, plasma | 20 mg, day 1, geometric mean |  | AUC(0-4) | 0.603 ng·h/mL
CCCCC[C@H](O)CC[C@@H]1[C@H]2Cc3cccc(OCC(=O)O)c3C[C@H]2C[C@H]1O | LC-MS/MS | Japanese CTD-associated PAH patients, plasma | inhaled, 54 µg |  | geometric mean AUC(0-inf) | 0.59 ng·h/mL
CCn1c(SCC(=O)Nc2ccccc2OC)nnc1-c1c[nH]c2ccccc12 |  | aqueous buffer | pH 7.4 |  | thermodynamic solubility | < 5.36 µM
Cc1ccc([C@@H]2O[C@H](CO)[C@@H](O)[C@H](O)[C@H]2O)cc1Cc1ccc(-c2ccc(F)cc2)s1 |  | Japanese type 2 diabetes patients | 200 mg, day 17, 24 h urine collection | baseline: baseline | urinary chloride excretion change | -20.2 mEq
Cn1cc([C@H]2C[C@H]3CSC(N)=N[C@@]3(c3ccc(F)cc3F)CO2)cn1 |  | male 129/SVE mouse, plasma | subcutaneous, 10 mg/kg, 1 h |  | plasma concentration | 1620 nM
CC(C)c1nc(N(C)S(C)(=O)=O)nc(-c2ccc(F)cc2)c1/C=C/[C@@H](O)C[C@@H](O)CC(=O)O |  | human | oral, 10 mg, alone |  | participants with abdominal pain | 8.3%
CCCCOc1ccc([C@H]2CC[C@H](CCC)CC2)c(F)c1F |  | rat, placenta | 10 ng/mL in perfusate, low dose, mixture of 21 LCMs |  | median placental accumulation | 16.9 ng/g
COc1ccc2c(c1)CN(C(=O)CCN1CCC(Cc3ccccc3)CC1)CC[S@@+]2[O-] | telemetry | conscious male beagle dogs | intravenous, 2 mg/kg, 2 h |  | QTc | 237 ± 10 ms
O=C(COc1ccc(Cl)cc1)NC12CC(c3nnc([C@H]4C[C@@H](OC(F)(F)F)C4)o3)(C1)C2 | muscle spasms | healthy human, both sexes | oral, dose not given, 14 days, multiple ascending dose, all doses |  | treatment-emergent adverse events | 5.9%
Cc1c(-c2ccc(N3CCc4cccc(C(=O)Nc5nc6ccccc6s5)c4C3)nc2C(=O)O)cnn1CC12CC3(C)CC(C)(C1)CC(OCCNCC[C@H](O)CO)(C3)C2 |  | anaesthetized male beagle dog | iv infusion, 0.01 mg/kg/min, 105 min |  | plasma concentration | < 2 ng/mL
Cn1cc(Nc2nccc(-c3ccc4c(c3)CN(C3COC3)CC[C@H]4NC(=O)c3cn(C(C)(C)C)nn3)n2)cn1 |  | human, whole blood | 50 mg twice daily, day 14 | baseline: pre-dose baseline | B cell count change | 35.1%
OC[C@H]1O[C@@H](Oc2cc3c(O)cc(O)cc3[o+]c2-c2cc(O)c(O)c(O)c2)[C@H](O)[C@@H](O)[C@@H]1O | CIELAB from visible spectra | aqueous buffer | 50 µM, pH 7, ±BSA 600 µM or lysozyme 1000 µM |  | hue angle | 350.6 ± 1.09 degrees
Cc1ccc(Sc2ccccc2N2CCNCC2)c(C)c1 | item: blood creatine phosphokinase increased | healthy adult men | oral, 20 mg daily, 12 days |  | participants with TEAE | 0%
O=C(OC(C(F)(F)F)C(F)(F)F)N1CCN(Cc2cccc(Oc3ccccc3)c2)CC1 | PET blocking study | rhesus monkey, brain OCC | 0.03 mg/kg, compound pretreatment, with: [18F]T-401 tracer |  | k2 | 0.031 min⁻¹
NC1(C(=O)N[C@@H](CCO)c2ccc(Cl)cc2)CCN(c2nc[nH]c3nccc2-3)CC1 |  | metastatic CRPC patients | 400 mg b.i.d., grade 3 to 4, treatment-related, with: enzalutamide 160 mg daily |  | incidence of Erythema | 0%
COc1ccnc(C(=O)NC(CO)C(=O)O)c1O (racemic) | aerobic dark soil incubation | silt loam soil | 20 °C, persistence endpoint |  | DT50 | 1.99 days
CN1C(=O)[C@@H](NC(=O)c2nnc(Cc3ccccc3)[nH]2)COc2cccnc21 | phase I multiple ascending dose | human, male and female | oral, 600 mg, 14 days |  | medical device site reaction incidence | 12.5%
C=CC(=O)Nc1cc(Nc2nccc(-c3cn(C)c4ccccc34)n2)c(OC)cc1N(C)CCN(C)C | item: ALT increased | EGFR-mutant MET-altered NSCLC patients | oral, dose not given, AE grade ≥3 |  | incidence of treatment-related AEs | 0%
CNCc1ccc(-c2[nH]c3cc(F)cc4c3c2CCNC4=O)cc1 |  | human patients | oral, 240 mg twice daily, all grades |  | nausea incidence | 0%

Excerpt of the above:
Compound | test | test system | setting | scale | endpoint | value
C=CC(=O)Nc1cc(Nc2nccc(-c3cn(C)c4ccccc34)n2)c(OC)cc1N(C)CCN(C)C | storage stability | human plasma | 30 d, on ice, MQC level |  | recovery | 50.3%
Cc1cc(Nc2cc3ncccc3c(N[C@@H]3C[C@H]4CC[C@@H](C3)N4CCC#N)n2)n[nH]1 |  | human, plasma | 20 mg, day 1, geometric mean |  | AUC(0-4) | 0.603 ng·h/mL
CCCCC[C@H](O)CC[C@@H]1[C@H]2Cc3cccc(OCC(=O)O)c3C[C@H]2C[C@H]1O | LC-MS/MS | Japanese CTD-associated PAH patients, plasma | inhaled, 54 µg |  | geometric mean AUC(0-inf) | 0.59 ng·h/mL
